{"data": "Published values pooled from the literature", "note": "Parts stem from different laboratories: compare values within a part only. Substitutions count along the parent as printed."}
{"data": "Block 1", "target": "Phosphate system positive regulatory protein PHO4, full length, GST-tagged (PHO4, Saccharomyces cerevisiae, UniProt P07270, residues 1-312)", "method": "competition protein-binding microarray", "molecule type": "double-stranded DNA, one strand shown", "sample": "in vitro", "concentration": "2 µM", "setting": "whole 60-bp probe, lowest competitor level", "together with": "Cbf1 competitor, 0.05 µM", "direction": "higher = stronger binding", "constant ends, left off below": "… GTCTTGATTCGCTTGACGCTGCTG", "Target sequence (chain)": "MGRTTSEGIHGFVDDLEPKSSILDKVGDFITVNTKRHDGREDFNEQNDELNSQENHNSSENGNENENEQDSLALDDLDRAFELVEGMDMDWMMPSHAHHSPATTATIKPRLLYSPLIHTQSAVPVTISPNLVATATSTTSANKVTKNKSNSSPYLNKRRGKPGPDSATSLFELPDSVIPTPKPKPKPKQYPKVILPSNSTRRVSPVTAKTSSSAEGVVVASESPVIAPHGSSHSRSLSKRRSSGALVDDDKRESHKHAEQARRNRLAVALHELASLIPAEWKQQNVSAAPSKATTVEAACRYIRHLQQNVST"}
{"Oligonucleotide": "TTGCTTTGCAGCGACCACGTGGAACACTTGTCTAGT", "fluorescence intensity": "19400 a.u."}
{"Oligonucleotide": "TTGGTGTGGGTAAAACACGTGAATAAGAAACTGTAT", "fluorescence intensity": "13200 a.u."}
{"Oligonucleotide": "TGTCTTTCACCTTGTCACGGGCGCTTAGCTCCAATT", "fluorescence intensity": "5600 a.u."}
{"Oligonucleotide": "CTAACGAAGGTTTGGGCTGTGGGTGACAAGCCAAGT", "fluorescence intensity": "4250 a.u."}
{"Oligonucleotide": "ACACCTGACTCGGACCATGTGGCTAAGTTTGTTTTG", "fluorescence intensity": "10300 a.u."}
{"Oligonucleotide": "CTAACGAAGGTTTGTATTGTGGGTGACAAGCCAAGT", "fluorescence intensity": "4090 a.u."}
{"Oligonucleotide": "AGAGTTTGCAGAGTCCATGTGTCAAGAATTAGAACT", "fluorescence intensity": "7710 a.u."}
{"Oligonucleotide": "TGCGCAACAACTTGACACGTGTTTTTATGTCTAGAA", "fluorescence intensity": "20100 a.u."}
{"Oligonucleotide": "TATGGTAACCTCTGCCATGCTGTCTCTGTTCCTTGA", "fluorescence intensity": "5140 a.u."}
{"Oligonucleotide": "AGGATCTAAAACCATCACATGATGTTCTAGTGCGTC", "fluorescence intensity": "7120 a.u."}
{"Oligonucleotide": "TTAGAGCTAAGAAAGCACGTGGTTACGATAATGAGG", "fluorescence intensity": "19600 a.u."}
{"Oligonucleotide": "CAACCAACTGACGAAACCGTGATGGTTATCAGAACT", "fluorescence intensity": "5100 a.u."}
{"Oligonucleotide": "GCGGGTATTCCCCCTGGTGTGATGAACATTGTATCC", "fluorescence intensity": "3580 a.u."}
{"Oligonucleotide": "CTAACGAAGGTTTGGCACGTGTTTTACAAGCCAAGT", "fluorescence intensity": "18100 a.u."}
{"Oligonucleotide": "GTCTTGTCTCATTGAACAGTGGGTGTCCCCACTTCA", "fluorescence intensity": "4630 a.u."}
{"Oligonucleotide": "CCAACAAACGGAACACACGTGCGGAAGTTTCAAAGG", "fluorescence intensity": "17700 a.u."}
{"Oligonucleotide": "CTTTCCCGATCTTGTCACGCTACTTTAGCACATTTG", "fluorescence intensity": "5790 a.u."}
{"Oligonucleotide": "GTCTTGTCTCATTGCCTGGTGGGTGTCCCCACTTCA", "fluorescence intensity": "4610 a.u."}
{"Oligonucleotide": "AAATTACTAAGTTGGAATGTGGGTGACGCCGTATGA", "fluorescence intensity": "6110 a.u."}
{"data": "Block 2", "target": "ABI1, truncated, D143A, DHFR fusion (Arabidopsis thaliana)", "method": "DHFR PCA, deep sequencing", "sample": "yeast", "setting": "methotrexate growth selection, single substitutions", "together with": "(+)-ABA 0.0091 µM", "relative to": "wild-type fitted maximum", "direction": "higher = stronger binding", "starting sequence": "PYL1, truncated, DHFR fusion (Arabidopsis thaliana); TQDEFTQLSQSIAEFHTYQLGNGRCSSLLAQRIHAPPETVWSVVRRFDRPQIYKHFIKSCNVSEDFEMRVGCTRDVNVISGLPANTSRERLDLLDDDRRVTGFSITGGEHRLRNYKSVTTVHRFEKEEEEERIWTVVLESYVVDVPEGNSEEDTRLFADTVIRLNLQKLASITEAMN"}
{"Variant": "H34P", "relative binding score [%]": 2.3}
{"Variant": "L82A", "relative binding score [%]": 5.82}
{"Variant": "S171D", "relative binding score [%]": 37.8}
{"Variant": "A84K", "relative binding score [%]": 9.76}
{"Variant": "T173H", "relative binding score [%]": -11.3}
{"Variant": "T101L", "relative binding score [%]": 73.9}
{"Variant": "V70R", "relative binding score [%]": 1.77}
{"Variant": "T86D", "relative binding score [%]": 3.88}
{"Variant": "E174N", "relative binding score [%]": -1.63}
{"Variant": "S9G", "relative binding score [%]": 20.6}
{"Variant": "E89Y", "relative binding score [%]": 7.69}
{"Variant": "V145G", "relative binding score [%]": -1.41}
{"Variant": "A175Y", "relative binding score [%]": 1.99}
{"Variant": "S140F", "relative binding score [%]": 1.31}
{"Variant": "K168F", "relative binding score [%]": 1.71}
{"data": "Block 3", "target": "CCND3, cyclin fold, Cln2 fusion (human)", "method": "yeast growth competition, sequencing", "sample": "yeast", "setting": "weak parent motif", "relative to": "not given", "direction": "higher = stronger binding", "starting sequence": "SCAPER docking peptide (human); SNARRSLNFGGST; partner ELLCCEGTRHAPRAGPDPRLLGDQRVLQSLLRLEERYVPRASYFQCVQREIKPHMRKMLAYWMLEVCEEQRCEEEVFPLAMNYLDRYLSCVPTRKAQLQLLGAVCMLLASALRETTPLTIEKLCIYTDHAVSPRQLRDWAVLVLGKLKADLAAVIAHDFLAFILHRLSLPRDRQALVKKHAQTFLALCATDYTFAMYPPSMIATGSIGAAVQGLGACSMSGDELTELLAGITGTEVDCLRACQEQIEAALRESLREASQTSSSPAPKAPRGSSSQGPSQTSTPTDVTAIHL"}
{"Variant": "A3K", "normalised enrichment score": 0.103}
{"Variant": "N8L", "normalised enrichment score": 0.0696}
{"Variant": "T13E", "normalised enrichment score": 0.126}
{"Variant": "S6K", "normalised enrichment score": 0.181}
{"Variant": "N8V", "normalised enrichment score": 0.11}
{"Variant": "G11C", "normalised enrichment score": 0.12}
{"Variant": "L7N", "normalised enrichment score": 0.115}
{"Variant": "R4D", "normalised enrichment score": 0.0806}
{"Variant": "S12C", "normalised enrichment score": 0.0837}
{"Variant": "S12Y", "normalised enrichment score": 0.138}
{"Variant": "N8C", "normalised enrichment score": 0.0679}
{"Variant": "N2F", "normalised enrichment score": 0.155}
{"Variant": "S12W", "normalised enrichment score": 0.0958}
{"Variant": "G11E", "normalised enrichment score": 0.0498}
{"Variant": "S1R", "normalised enrichment score": 0.132}
{"Variant": "S1V", "normalised enrichment score": 0.163}
{"Variant": "L7Y", "normalised enrichment score": 0.102}
{"Variant": "N8Y", "normalised enrichment score": 0.121}
{"Variant": "S1C", "normalised enrichment score": 0.179}
{"Variant": "F9Q", "normalised enrichment score": 0.117}
{"Variant": "G10N", "normalised enrichment score": 0.0953}
{"Variant": "G11V", "normalised enrichment score": 0.18}
{"Variant": "N2S", "normalised enrichment score": 0.191}
{"Variant": "F9N", "normalised enrichment score": 0.0766}
{"Variant": "R4L", "normalised enrichment score": 0.00997}
{"data": "Block 4", "target": "Histone acetyltransferase KAT6A, winged helix 1, GST fusion (KAT6A, Homo sapiens, UniProt Q92794, residues 1-85)", "method": "protein binding microarray", "molecule type": "double-stranded DNA, one strand shown", "sample": "in vitro", "concentration": "not given", "setting": "8-mer, flanks averaged, mean of 2 arrays, mostly near background", "relative to": "not given", "direction": "higher = stronger binding", "Target sequence (chain)": "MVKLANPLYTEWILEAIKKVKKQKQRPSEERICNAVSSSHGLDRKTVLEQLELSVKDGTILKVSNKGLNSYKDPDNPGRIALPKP"}
{"Oligonucleotide": "TCTATCAA", "E-score": -0.208}
{"Oligonucleotide": "ACAGTTGA", "E-score": -0.171}
{"Oligonucleotide": "GAAGGGAA", "E-score": -0.115}
{"Oligonucleotide": "CGTTACCA", "E-score": -0.203}
{"Oligonucleotide": "ATAACCTG", "E-score": -0.251}
{"Oligonucleotide": "CATTGCGA", "E-score": -0.0959}
{"Oligonucleotide": "ACTTGTCT", "E-score": -0.252}
{"Oligonucleotide": "ATTCCGCC", "E-score": 0.199}
{"Oligonucleotide": "TATAGGCA", "E-score": -0.27}
{"Oligonucleotide": "TGGATCCA", "E-score": -0.156}
{"Oligonucleotide": "CCGTATTA", "E-score": 0.302}
{"Oligonucleotide": "CCAGGTCC", "E-score": -0.00474}
{"Oligonucleotide": "AGCCCAAA", "E-score": -0.105}
{"Oligonucleotide": "CCTATACG", "E-score": 0.0279}
{"Oligonucleotide": "AAGAGTAG", "E-score": -0.059}
{"Oligonucleotide": "GCTTATAA", "E-score": -0.0974}
{"Oligonucleotide": "AGTGTAGG", "E-score": -0.207}
{"Oligonucleotide": "GACAGCCA", "E-score": -0.0859}
{"Oligonucleotide": "TAATTCTA", "E-score": -0.166}
{"Oligonucleotide": "GGGGGTCA", "E-score": -0.0174}
{"data": "Block 5", "target": "Sal-like protein 4, full length isoform B (SALL4, Homo sapiens, UniProt Q9UJQ4-2, residues 1-616)", "method": "universal PBM", "molecule type": "double-stranded DNA, one strand shown", "sample": "in vitro", "concentration": "not given", "setting": "8-mer, flanks averaged, mean of replicates", "direction": "higher = stronger binding"}
{"Oligonucleotide": "CGCACAAG", "E-score": -0.0994}
{"Oligonucleotide": "CCTTTTCA", "E-score": 0.0741}
{"Oligonucleotide": "TCGGCTCA", "E-score": -0.151}
{"Oligonucleotide": "CAATCACA", "E-score": 0.2}
{"Oligonucleotide": "AGAACGAT", "E-score": 0.0512}
{"Oligonucleotide": "CTTTTAGC", "E-score": -0.0738}
{"Oligonucleotide": "AATTCTAT", "E-score": 0.185}
{"Oligonucleotide": "CCTAAATC", "E-score": -0.0508}
{"Oligonucleotide": "GACCCAAA", "E-score": 0.0326}
{"Oligonucleotide": "ATATGGTC", "E-score": 0.215}
{"Oligonucleotide": "AAGGACGG", "E-score": -0.195}
{"Oligonucleotide": "TTAACGAA", "E-score": 0.174}
{"Oligonucleotide": "ACGAGAAG", "E-score": -0.0486}
{"Oligonucleotide": "CCACCCTC", "E-score": -0.244}
{"Oligonucleotide": "AGAAACAC", "E-score": 0.0479}
{"Oligonucleotide": "TGTGAAAA", "E-score": 0.195}
{"Oligonucleotide": "AAAGGCCT", "E-score": -0.176}
{"Oligonucleotide": "CCAACGTA", "E-score": -0.00064}
{"Oligonucleotide": "ACCCACGA", "E-score": -0.215}
{"Oligonucleotide": "TACTTCGA", "E-score": 0.195}
{"Oligonucleotide": "ACAGCTAT", "E-score": 0.124}
{"Oligonucleotide": "AGGAAACC", "E-score": -0.17}
{"Oligonucleotide": "AGGCCTAA", "E-score": -0.0324}
{"Oligonucleotide": "AATCACAC", "E-score": 0.183}
{"Oligonucleotide": "AACCGCAC", "E-score": -0.244}
{"data": "Further values, each from its own experiment"}
{"Molecule": "PhoQ, residues 284 288 289 292 302 303 NLSRDF", "target": "PhoP, residues 12 14 15 18 19 LHHVQ (Escherichia coli, UniProt P23836)", "test": "Sort-seq, refers to: YFP reporter", "test system": "E. coli", "setting": "PhoQ-PhoP variant library, together with: 10 µM Mg2+", "how to read": "relative to: high Mg2+ state, higher = stronger signaling", "quantity": "fold induction", "value": 2.18}
{"note": "Some of these lines once more (block 3):"}
{"Variant": "N8V", "normalised enrichment score": 0.11}
{"Variant": "G11C", "normalised enrichment score": 0.12}
{"Variant": "L7N", "normalised enrichment score": 0.115}
{"Variant": "R4D", "normalised enrichment score": 0.0806}
{"Variant": "S12C", "normalised enrichment score": 0.0837}
{"Variant": "S12Y", "normalised enrichment score": 0.138}
{"Variant": "N8C", "normalised enrichment score": 0.0679}
{"Variant": "N2F", "normalised enrichment score": 0.155}
{"Variant": "S12W", "normalised enrichment score": 0.0958}
